Measured values of several laboratories.
A part holds a random share of what one study measured.

Series 1 — method: protein binding microarray; molecule type: double-stranded DNA, one strand shown; matrix: in vitro; concentration: not given; relative to: not given; reading: higher = stronger binding
Target: Histone acetyltransferase KAT6A, winged helix 2, GST fusion (KAT6A, Homo sapiens, UniProt Q92794, residues 85-181)
Setting: 8-mer, flanks averaged, mean of 2 arrays, mostly near background
Target sequence (chain): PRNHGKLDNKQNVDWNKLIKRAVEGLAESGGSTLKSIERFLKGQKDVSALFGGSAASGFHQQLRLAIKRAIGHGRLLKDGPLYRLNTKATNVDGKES
| Oligonucleotide | E-score |
| --- | --- |
| CGACCGCG | 0.225 |
| CCTTCCAA | -0.107 |
| CATATAGA | -0.0865 |
| GACGACGC | -0.0557 |
| AGACATAT | -0.105 |
| ACGTACGC | -0.176 |
| AAGTAAAC | -0.0976 |
| TTATGGAA | -0.188 |
| GACCGCCA | 0.0614 |
| CACGAGTG | -0.0458 |
| AAACACCC | 0.0374 |
| AAGCTGTA | 0.0111 |
| AGGACCCC | -0.15 |
| AACGCTGC | -0.0254 |
| AAAAATTT | 0.0579 |
| CGTGCCCC | -0.0735 |
| CCACCGCC | 0.151 |
| CCAGAACA | -0.0169 |
| TATAAATA | 0.112 |

Series 2 — method: competition protein-binding microarray; molecule type: double-stranded DNA, one strand shown; matrix: in vitro; concentration: 2 µM; together with: Pho4 competitor, 0.05 µM; reading: higher = stronger binding
Target: Centromere-binding protein 1, full length, His-tagged (CBF1, Saccharomyces cerevisiae, UniProt P17106, residues 1-351)
Chain of UniProt P17106 (whole entry, looked up): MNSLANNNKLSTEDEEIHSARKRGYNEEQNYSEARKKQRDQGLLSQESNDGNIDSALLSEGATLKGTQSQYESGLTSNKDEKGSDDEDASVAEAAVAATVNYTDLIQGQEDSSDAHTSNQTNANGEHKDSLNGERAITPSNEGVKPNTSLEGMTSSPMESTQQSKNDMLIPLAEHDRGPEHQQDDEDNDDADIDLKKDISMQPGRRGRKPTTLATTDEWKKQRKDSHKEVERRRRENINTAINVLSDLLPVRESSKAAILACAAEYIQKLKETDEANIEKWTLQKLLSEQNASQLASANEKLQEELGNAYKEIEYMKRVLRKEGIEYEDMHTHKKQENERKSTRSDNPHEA
Setting: whole 60-bp probe, lowest competitor level
| Oligonucleotide | fluorescence intensity [a.u.] |
| --- | --- |
| CGAGTCTAATGACTTGACGTGGCCGTTTTTCTTGTCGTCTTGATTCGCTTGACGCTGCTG | 72.3 |
| GTTGAATAAAGATTTCACGTGACTCGAGCTGGTCTTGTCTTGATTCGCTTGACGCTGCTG | 6570 |
| AGAGCCGATACGGCACCCGTGCGATACGAGACAGGAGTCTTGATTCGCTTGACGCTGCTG | 65 |
| TTCACAAAATTGCCACTCGTGGTGATATGCTATGGAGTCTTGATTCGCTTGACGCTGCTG | 97.7 |
| CGTCCTAGTGATTGTAGGGTGGGTGCCATGAGGAAGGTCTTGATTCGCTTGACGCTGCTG | 84.3 |
| CATACCCAACCTTGAGGGGTGGGTGAAGATATTTGTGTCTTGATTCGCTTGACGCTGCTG | 68.2 |
| TCTTGTTACATCCGTCACGGCATTCCAGCTGTAAAAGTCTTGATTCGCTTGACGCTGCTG | 81.5 |
| GCATATGCCTTCTGGCACGTGTCCATCTGCATACTAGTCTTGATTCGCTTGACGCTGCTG | 2500 |
| AGTTCTCGGACTTTTGACGTGCCAGTGCAATTATCCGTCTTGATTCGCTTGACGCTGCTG | 92.1 |
| GTCTTGTCTCATTGTTACGTGGGTGTCCCCACTTCAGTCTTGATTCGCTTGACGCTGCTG | 93.2 |
| ATACTTTTATCGGCCCATGTGTGCCTAGTCAGCTCGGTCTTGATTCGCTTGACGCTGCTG | 133 |
| GGCTCAAAGAGATCTCACGTGGTCGGAGTATGAACGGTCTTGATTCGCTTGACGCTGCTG | 1950 |
| TTTCCAAGCCGCCGTCACGGCTGAATACCTGGCCAAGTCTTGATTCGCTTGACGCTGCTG | 66.6 |
| TGCGCAACAACTTGCTTGGTGGGTGTATGTCTAGAAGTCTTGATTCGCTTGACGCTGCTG | 68 |
| CTTCTGTAAATTTGAGCTGTGGGTGGACGCGCCCCGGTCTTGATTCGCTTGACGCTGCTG | 81.1 |
| ATGATGTTGCATTTGCACGTGTTTTGTTGTACCTCTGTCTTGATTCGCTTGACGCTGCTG | 1770 |
| AGGACGAGAAACAAGCACATGATGTGTGTCGAAAAAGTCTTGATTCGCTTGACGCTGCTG | 390 |

Series 3 — method: RNA Bind-n-Seq; molecule type: RNA; matrix: in vitro; concentration: 365 nM; relative to: no-protein control; reading: higher = stronger binding
Target: RNA binding protein fox-1 homolog 2, RRM domain, GST-SBP tag (RBFOX2, Homo sapiens, UniProt O43251-10, residues 100-194)
Setting: natural RNA segment, single round, ends assumed
Target sequence (chain): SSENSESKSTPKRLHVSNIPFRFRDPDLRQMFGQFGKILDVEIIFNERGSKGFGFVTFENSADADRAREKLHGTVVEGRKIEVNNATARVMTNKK
| Oligonucleotide | RBNS enrichment (R) |
| --- | --- |
| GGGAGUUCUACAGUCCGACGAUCCUCUAGUGAUGUUCACCACUUUUAUUUAUUCCUACCUAUUUAUUUAUUUCAUAGCACCAGUAUUCAGGCUUUCAUGAACAUCAUUUUGGGGGAGCAAGACUUCAUCUGUAUGGAAUUCUCGGGUGCCAA | 0.591 |
| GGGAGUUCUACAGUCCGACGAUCAAGACAUUCGUUUGCUUUAGUGAAACUCCCUCGCUCCAGCCUCUCUAAGUAGCUCUUCCCGCUGUGUCCGUGUGCACACUGUAGCCCCACAGCCCCGUAGAACCUGCAGUUGGAAUUCUCGGGUGCCAA | 0.834 |
| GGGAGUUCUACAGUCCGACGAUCGCGCCCCGGUGAGCGCGGGGACGAUUUUCUAACCUCGAGUGGACAGCGUCUGAGACUUGAGAACUGAGACACCGUGUUCUUCAGCACGCGUCCUGUAGCUAGAGGCUCGAUGGAAUUCUCGGGUGCCAA | 0.63 |
| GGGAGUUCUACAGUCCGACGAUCAGAUGUCAUUUUGAGCUAAAACCCAGUUAGAUGCAGUAAAAAACCACUUUGAGAGAUGGCUUGUGUUAGGCUGAAACUGAUAGAAACGUUAACUGCUGCAGCUCUCUUUGUGGAAUUCUCGGGUGCCAA | 0.814 |
| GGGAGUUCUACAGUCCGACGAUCCUGAGGAAUCCCAGAAGCAACCAGAGACCAUCAUAAAUGUCAAAUACCGGAGUCUACCCUGCUUCACCAUCUCCCACCCUUAUACUGUCUCUGAUGAGUUAUGCUAAGUUUGGAAUUCUCGGGUGCCAA | 0.652 |
| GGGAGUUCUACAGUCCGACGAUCUUCAAGCCUUAGGAACUGGCAGACGGAACUGUUUCCAUCCACCAACCCCCAGGGUAUCAACCACUUUUUUGCAGCUUUUACGGUUCAAACCUAUCAAACUCUACAAAUAAUGGAAUUCUCGGGUGCCAA | 0.238 |
| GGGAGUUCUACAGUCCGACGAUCUUUAAGACUUUGUCAUCCGUUCUAGUGUAUAUGCAGAGCCUGUUGUGUGUGUGGACUGGUUAUAGAUUUAUAACUAUGCAGGGUUAAUUAUCCAAUCUUUUUUUUUUGUAUGGAAUUCUCGGGUGCCAA | 1.48 |
| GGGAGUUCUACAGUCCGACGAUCGCUAAGUAGAAGCAGUCUCAGGCCUGCUGCUUGAGGCUGUUCUUGGCUUGGACCUGAAAUCUGCCCCCAACAGUGUCCAAGUGCACAUGACUUUGAGCCAUCUCCAGAGAUGGAAUUCUCGGGUGCCAA | 0.981 |

Series 4 — method: RNA Bind-n-Seq; molecule type: RNA; matrix: in vitro; concentration: not given; relative to: input RNA pool; reading: higher = stronger binding
Target: RING finger protein unkempt homolog, zinc fingers 1-6, GST-SBP tag (UNK, Homo sapiens, UniProt Q9C0B0, residues 30-357)
Chain of UniProt Q9C0B0 (30-357, looked up): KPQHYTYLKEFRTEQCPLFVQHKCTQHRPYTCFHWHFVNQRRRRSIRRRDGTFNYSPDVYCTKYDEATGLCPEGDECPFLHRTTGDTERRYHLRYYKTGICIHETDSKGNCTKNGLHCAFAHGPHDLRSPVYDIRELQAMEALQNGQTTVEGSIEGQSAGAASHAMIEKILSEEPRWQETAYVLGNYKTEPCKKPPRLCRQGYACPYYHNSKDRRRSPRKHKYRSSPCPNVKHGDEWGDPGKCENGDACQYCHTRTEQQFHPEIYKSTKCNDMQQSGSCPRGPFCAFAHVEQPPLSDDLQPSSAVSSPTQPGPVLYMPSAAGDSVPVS
Setting: RNA with constant flanks, human-mouse chimeric sites, ends assumed
| Oligonucleotide | bound/input enrichment [ratio] |
| --- | --- |
| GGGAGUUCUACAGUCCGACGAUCUACUCAACUUUCUUUCCACAUUUUGAAUUCCAAGACAUUAUUCCUCCAGAUGACUUCCUAACGAGUGAUGAAGAGCAAGAUUUGGUUUUAUUUGGAACUAUGAGAGGACAAGUUGUUGGACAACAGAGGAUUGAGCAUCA | 0.139 |
| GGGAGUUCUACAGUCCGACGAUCUAACCACAUCAAGAUGGUUGGGAAGCUGAAGCAGAACUUACUAUUGGCGUGUCUGGUGAUUAGUUCUGUGACUGUGUUUUACCUGGGCCAGCAUGCCAUGGAGUGCCAUCACCGAAUAGACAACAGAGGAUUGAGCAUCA | 0.253 |
| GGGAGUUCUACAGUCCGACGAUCGGUGGGGUGGUCAUUGCCGUUUGAGCUGCUGAUUUUCUUAUGAAUCAUUCAAAACUCUCGUGUAGGGUUGACACUGUGGGGGGGUGGGGGAUCCAGCUUAUUCUUUUAUUUUCAAGUCCACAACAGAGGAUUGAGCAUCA | 0.89 |
| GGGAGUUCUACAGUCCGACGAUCCAGCCUCAGAGCCCAGACUUCCUGGAUAUUACCAACCCUAAAGCGGUAUUAGAAAAUGCAUUGAGAAACUUUGCCUGUCUGACGACUGGAGAUGUGAUUGCUAUCAACUAUAAUGAAAAGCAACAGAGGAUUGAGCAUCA | 0.5 |
| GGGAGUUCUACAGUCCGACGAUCCUAAUCCCCUUUACUGCUCCCCCACUUCUCAUGGUAAUAACAAAGUCUUAUAUUCCCGUCCUAGCUUUCACUCAGAUGGCUUAUGGAGCCGGUUUCCUAGCUUUCUUGGGAGGGAUCAGACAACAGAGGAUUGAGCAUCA | 0.898 |
| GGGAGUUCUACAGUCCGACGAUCAACAGAUUGUCUUUAAGCAUUCCAAGCGAGAAUGCUGAAAUAGUCAUUGUUGCCCAUAUAUAGUAAUACUGAGCUUUAAUGCUGUUCCAUGUUACAUCUUUCCUUCACUCCAGAAUUGUUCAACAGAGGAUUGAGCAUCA | 1.16 |
| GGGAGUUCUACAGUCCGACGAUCAGAUUCCCCCUCCUGAGACCUCCUCCGAAAUUGGCAUCUCUUACAGAUGCCUCAUCCCCUGUUAGCGUUUUAGUUUGGACCACCCAGCCUUGGACAAUUCCAGCCAACCAGGCAAUUUGCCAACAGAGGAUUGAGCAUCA | 1.05 |
| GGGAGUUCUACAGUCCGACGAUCAAUAGAGGAUCCACCUCCCAAAGUGCUGGGAGUAAAGGUGUGGCCACCACACCUAACUUGAUGGAUAUAUAUUUUUUUUAAUAUGAAUGAACUCUUGCGUCCAGGGAAGAAAGAUUUGUUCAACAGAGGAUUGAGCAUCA | 0.854 |

Repeated from above (series 1):
| Oligonucleotide | E-score |
| --- | --- |
| AACGCTGC | -0.0254 |
| AGACATAT | -0.105 |
| CATATAGA | -0.0865 |
| TTATGGAA | -0.188 |
| CGTGCCCC | -0.0735 |
| AAGCTGTA | 0.0111 |
| CACGAGTG | -0.0458 |
| CGACCGCG | 0.225 |
